# Results from different studies.
# Numbered parts are unrelated; each lists some results of a single study. Changes are numbered by the printed parent chain.

# Block 1
# Target: CCNF, cyclin fold, Cln2 fusion (human)
# Method: yeast growth competition, sequencing
# Matrix: yeast
# Setting: strong parent motif
# Relative to: not given
# Reading: higher = stronger binding
# Parent: CDC6 docking peptide (human); TLKGRRLVFDNQL
Change,normalised enrichment score
L7E,0.307
R5Q,0.878
F9N,0.173
V8A,6.07
D10R,7.16
L2R,8.53
D10S,8.49
R6C,7.12
T1S,8.05

# Block 2
# Target: CREB3L1, bZIP domain (human)
# Method: DHFR protein complementation
# Matrix: yeast
# Setting: single substitutions, most at no-binding floor
# Relative to: wild-type JUN-FOS pair
# Reading: higher = stronger binding
# Parent: JUN, bZIP domain (human); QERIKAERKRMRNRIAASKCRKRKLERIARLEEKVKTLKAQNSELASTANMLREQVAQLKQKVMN; partner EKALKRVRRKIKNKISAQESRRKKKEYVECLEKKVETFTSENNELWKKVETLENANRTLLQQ
Change,binding fitness
K36F,-1.52 natural log
A29I,-1.5 natural log
R53H,-1.54 natural log
E54V,-1.37 natural log
Q55L,-1.47 natural log
T48F,-1.51 natural log
L31G,-1.48 natural log

# Block 3
# Target: ABI1, truncated, D143A, DHFR fusion (Arabidopsis thaliana)
# Method: DHFR PCA, deep sequencing
# Matrix: yeast
# Setting: methotrexate growth selection, single substitutions
# Added: (+)-ABA 0.0091 µM
# Relative to: wild-type fitted maximum
# Reading: higher = stronger binding
# Parent: PYL1, truncated, DHFR fusion (Arabidopsis thaliana); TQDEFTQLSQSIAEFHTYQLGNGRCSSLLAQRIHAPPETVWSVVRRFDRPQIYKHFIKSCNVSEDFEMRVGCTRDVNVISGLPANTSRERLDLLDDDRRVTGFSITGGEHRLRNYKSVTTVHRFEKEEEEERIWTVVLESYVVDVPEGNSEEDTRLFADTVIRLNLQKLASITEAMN
Change,relative binding score [%]
G148Y,-9.22
A170H,-1.89
I33Q,1.05
P50K,-3.84
L94V,-2.16
T106M,42

# Further values, each from its own experiment
Molecule,target,test,test system,conditions,scale,quantity,value
"PhoQ, residues 284 288 289 292 302 303 SLSLLA","PhoP, residues 12 14 15 18 19 SQCLL (Escherichia coli, UniProt P23836)","Sort-seq, item: YFP reporter",E. coli,"PhoQ-PhoP variant library, added: 10 µM Mg2+","relative to: high Mg2+ state, higher = stronger signaling",fold induction,1.65
